# Assay results gathered from unrelated publications.
# Numbered parts are unrelated; each lists some results of a single study. Changes are numbered by the printed parent chain.

# Study 1 — method: universal PBM; molecule type: double-stranded DNA, one strand shown; matrix: in vitro; tested at: 600 nM; direction: higher = stronger binding
# Target: Sal-like protein 4, full length isoform A (SALL4, Homo sapiens, UniProt Q9UJQ4, residues 1-1053)
# Sequence of UniProt Q9UJQ4 (whole entry, looked up): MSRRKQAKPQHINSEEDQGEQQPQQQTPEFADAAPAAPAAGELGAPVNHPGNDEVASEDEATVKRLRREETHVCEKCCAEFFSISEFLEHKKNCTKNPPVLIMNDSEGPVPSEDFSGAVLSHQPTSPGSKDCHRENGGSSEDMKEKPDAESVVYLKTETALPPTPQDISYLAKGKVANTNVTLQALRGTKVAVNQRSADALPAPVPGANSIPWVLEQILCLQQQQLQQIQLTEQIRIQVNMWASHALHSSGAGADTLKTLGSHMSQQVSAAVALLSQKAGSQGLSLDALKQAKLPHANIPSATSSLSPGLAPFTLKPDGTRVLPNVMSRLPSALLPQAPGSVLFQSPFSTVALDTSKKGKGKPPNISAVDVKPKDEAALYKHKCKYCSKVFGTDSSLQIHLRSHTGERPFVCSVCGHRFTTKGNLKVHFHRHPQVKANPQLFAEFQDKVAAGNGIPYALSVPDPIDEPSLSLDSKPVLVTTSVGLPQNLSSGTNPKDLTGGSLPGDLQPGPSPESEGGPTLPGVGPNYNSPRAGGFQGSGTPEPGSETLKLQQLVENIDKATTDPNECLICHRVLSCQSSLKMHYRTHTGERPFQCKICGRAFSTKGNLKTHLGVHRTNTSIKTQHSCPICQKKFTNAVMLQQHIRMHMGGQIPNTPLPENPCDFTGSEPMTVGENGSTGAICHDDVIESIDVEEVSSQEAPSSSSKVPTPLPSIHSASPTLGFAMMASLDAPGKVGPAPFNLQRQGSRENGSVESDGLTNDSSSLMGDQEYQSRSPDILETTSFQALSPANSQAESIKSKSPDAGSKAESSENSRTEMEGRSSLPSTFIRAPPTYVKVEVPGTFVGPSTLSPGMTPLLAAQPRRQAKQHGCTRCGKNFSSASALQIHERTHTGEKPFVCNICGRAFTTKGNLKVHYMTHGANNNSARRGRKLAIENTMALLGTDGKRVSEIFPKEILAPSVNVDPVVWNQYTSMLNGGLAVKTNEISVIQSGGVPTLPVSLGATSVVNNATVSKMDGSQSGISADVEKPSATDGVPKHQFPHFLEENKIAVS
# Setting: 8-mer, flanks averaged, mean of replicates
Oligonucleotide,E-score
CCAGTTAC,-0.181
ACAGAGTG,0.0409
ACCTGACC,-0.113
ATACGGCA,0.128
ACTCGAGG,-0.15
GAAACGAC,-0.103
ACAGCAGT,-0.0614
AAGGAGTA,-0.0692
GCCGGTAC,-0.233
CACGTTCG,-0.0644
CTGCGCAG,-0.208
TCAGCGGA,-0.175
AGTTTGTG,-0.00781
CAGTCGAA,-0.169
AACTTCGT,0.00139
ATGTCTTG,0.177
GGCTTCCC,-0.212
GCCGACAA,-0.149
CAGTGCCG,-0.275
AATCCCTC,-0.0553
CCCATAAA,0.122
GCATCTAC,0.0404
CGGAAATA,0.236
CAACCGTC,-0.342
ACGTAAAC,-0.0217

# Study 2 — method: DHFR PCA, deep sequencing; matrix: yeast; with: (+)-ABA 4.8 µM; relative to: wild-type fitted maximum; direction: higher = stronger binding
# Target: ABI1, truncated, D143A, DHFR fusion (Arabidopsis thaliana)
# Setting: methotrexate growth selection, single substitutions
# Starting sequence: PYL1, truncated, DHFR fusion (Arabidopsis thaliana); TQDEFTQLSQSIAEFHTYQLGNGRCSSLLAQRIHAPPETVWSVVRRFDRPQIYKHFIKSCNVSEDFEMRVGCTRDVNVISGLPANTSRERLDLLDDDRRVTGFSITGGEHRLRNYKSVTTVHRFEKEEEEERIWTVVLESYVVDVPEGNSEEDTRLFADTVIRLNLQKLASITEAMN; partner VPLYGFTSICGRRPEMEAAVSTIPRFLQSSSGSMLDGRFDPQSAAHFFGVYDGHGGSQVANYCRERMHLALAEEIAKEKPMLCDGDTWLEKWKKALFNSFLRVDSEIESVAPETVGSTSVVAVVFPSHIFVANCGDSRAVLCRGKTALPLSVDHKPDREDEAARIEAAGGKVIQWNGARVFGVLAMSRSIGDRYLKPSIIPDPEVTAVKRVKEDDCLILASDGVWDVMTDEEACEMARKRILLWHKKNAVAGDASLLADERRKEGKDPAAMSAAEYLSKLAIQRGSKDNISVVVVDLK
Variant,relative binding score
E151V,83.9%
F15E,-16.8%
P37N,-10.4%
R69C,64%
D3I,60.5%
G21W,42.7%
L20Y,64.3%
T173M,25.9%
V70W,6.94%
S117G,11.2%
T73C,68.3%
Y18P,64.1%
V121K,-13.3%
E67I,68.5%

# Study 3 — method: RNA Bind-n-Seq; molecule type: RNA; matrix: in vitro; tested at: not given; relative to: input RNA pool; direction: higher = stronger binding
# Target: RING finger protein unkempt homolog, zinc fingers 1-6, GST-SBP tag (UNK, Homo sapiens, UniProt Q9C0B0, residues 30-357)
# Sequence of UniProt Q9C0B0 (30-357, looked up): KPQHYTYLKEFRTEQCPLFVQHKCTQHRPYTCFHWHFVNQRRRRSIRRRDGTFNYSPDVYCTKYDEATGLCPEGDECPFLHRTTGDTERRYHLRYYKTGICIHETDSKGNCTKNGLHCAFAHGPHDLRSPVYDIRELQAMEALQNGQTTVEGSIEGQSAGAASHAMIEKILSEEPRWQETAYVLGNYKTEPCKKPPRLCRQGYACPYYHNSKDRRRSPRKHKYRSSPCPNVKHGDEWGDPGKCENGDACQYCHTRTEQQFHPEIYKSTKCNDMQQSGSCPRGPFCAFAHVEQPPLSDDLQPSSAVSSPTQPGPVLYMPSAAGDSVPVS
# Setting: RNA with constant flanks, human and mouse sites, ends assumed
Oligonucleotide,bound/input enrichment [ratio]
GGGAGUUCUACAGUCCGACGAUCGCUGUUAUCUAUGCGGGUGUACGGGGUUAUCUUGACAAACUGGAGCCCAGCAAGAUCACAAAGUUUGAGAAUGCUUUCUUGUCUCACGUUAUCAGCCAGCACCAGUCCCUCUUGGGCAAUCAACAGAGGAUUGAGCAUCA,0.133
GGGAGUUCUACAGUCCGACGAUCUUACAUCUCAAUGAAGCAAGGGACUAUGAAGUGUCAGAUAGUGCCCCUCAUCUUGAGGGCCUAGCAGAAUUUCAAGAGAAUGUAAGGAAGACCAACAAUUUUUCAGCUUUUCUUGCCAAUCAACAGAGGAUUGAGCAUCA,0.123
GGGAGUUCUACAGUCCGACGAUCGAUGGUGCUGUCUUCUUUAACAAAGAAAGAACGAGGAAUAUUGUGAAAUUUGACUUGAGGACUAGAAUUAAGAGUGGCGAGGCCAUAAUUAACUAUGCCAACUACCAUGAUACCUCACCACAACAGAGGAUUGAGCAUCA,0.125
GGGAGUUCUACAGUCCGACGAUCUUUGUAAAAUUGUCCUAAUCUUUCCUAGCUUUUUAAUAGUUAAUAUUAGAAACUCUUUAAUAGUUUUCCUUUCAGUUUGUGAGCUCUUCUCUGUCGCCCUGAAGGGUCACUGUAUUCUGUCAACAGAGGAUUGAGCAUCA,65.9
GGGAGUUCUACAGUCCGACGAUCCUUCCCUUUGGAGACAAAGACACAAAAUCCAAAGUGACCCUGCUGGAAGGUGACCAUGUUAGGUUUAAUAUUUCAACAGACCGACGUGACAAAUUGGAACGAGCAACCAACAUAGAGGUUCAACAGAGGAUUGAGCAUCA,0.277
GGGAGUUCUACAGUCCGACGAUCGUUUUGACUAUUUGAAUUUUCACAUAUUGGGCUUACCCAGAGUGGAGCACACCUCCAGGGCAUGUGGCUGACACUGGGUCAAUGUCUGCAUCUGUGCUGUGUGUGUAGUGUGGUUGGCCACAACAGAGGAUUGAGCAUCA,0.237
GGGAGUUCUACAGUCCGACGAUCCUCUUUUAGGGUUGUCUUUUUACAAACCAUGACUUUCCACUUGCCUGUAGUUUUUUGUUUGUUUUGGUUUGGUUUGAUUUUAUAUUUUUUUCUCCUAAUCUAUGACUUUAUUGUUUUUUCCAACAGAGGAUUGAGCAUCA,6.34
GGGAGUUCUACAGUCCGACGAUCAAAAAUCCUUGUGGUUAACAGCAGAGGCUUCAGAGUGUAACCUGUACUCGGGCCUAGAAAUUAUUUAAAAUGGCGACUGAUACGUCUCAAGGUGAACUCGUCCAUCCUAAGGCACUCCCACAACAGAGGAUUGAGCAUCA,0.496
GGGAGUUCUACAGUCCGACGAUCUUUUUUACACCAUACGUGUAUCCAGCCACAUGGCCAGAAGAUGACAUCUUCCGACAAGCUAUUAGUCUUCUGAUUGUAACAAAUGUUGGUGCUUACAUCCUUUAUUUCUUCUGUGCAACACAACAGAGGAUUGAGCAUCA,0.468
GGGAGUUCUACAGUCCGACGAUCAAAACAUGGAUGCAUACACCUGAAGCUUUAUCAAAACAUUUCAUUCCCUAUAAUGCAAAGUUUCUUGGCAGUACAGAAGUGGAACAGCCAAAAGGAACAGAAGUUGUGAGAGAUGCUGUACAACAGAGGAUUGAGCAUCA,0.15
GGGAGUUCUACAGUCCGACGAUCACUGGGUUUGGAUUAGGAAUUGUUUUCUCCCUCACCUUCUUUAAGAGAAGAAUGUGGCCAUUAGCCUUUGGUUCUGGCGUGGGAUUGGGAAUGGCCUACUCCAACUGUCAGCAUGACUUUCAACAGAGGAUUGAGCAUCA,0.381

# Study 4 — method: protein binding microarray; molecule type: double-stranded DNA, one strand shown; matrix: in vitro; tested at: not given; relative to: not given; direction: higher = stronger binding
# Target: Histone acetyltransferase KAT6A, winged helix 2, GST fusion (KAT6A, Homo sapiens, UniProt Q92794, residues 85-181)
# Setting: 8-mer, flanks averaged, mean of 2 arrays, mostly near background
# Construct (chain): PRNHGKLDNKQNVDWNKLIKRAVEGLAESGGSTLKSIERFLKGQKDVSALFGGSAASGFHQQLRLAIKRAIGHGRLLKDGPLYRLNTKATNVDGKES
Oligonucleotide,E-score
ACCCCGCG,0.0732
CTCCCTTA,-0.161
GCAGGCTA,0.0119
CCCAGGAA,-0.0585
CACTTAGC,0.0124
TAGAGTAA,0.00817
ATTTAGGA,-0.116
AAGAGCTT,0.114
ATGGGGTG,-0.0951
CCCCCCTA,-0.167
AATTACTC,0.0298
ATTGCGTG,0.00284
GCCTCAGA,0.0982
CTTGTTTA,0.074
AATGTTCT,-0.225
AAATTTCT,0.041
AGTGGAAT,0.048
AGTATTCC,-0.00418
CAATGGCA,0.0744
TGCCAGAA,0.0129

# Study 5 — method: RNA Bind-n-Seq; molecule type: RNA; matrix: in vitro; tested at: 365 nM; relative to: no-protein control; direction: higher = stronger binding
# Target: RNA binding protein fox-1 homolog 2, RRM domain, GST-SBP tag (RBFOX2, Homo sapiens, UniProt O43251-10, residues 100-194)
# Setting: natural RNA segment, single round, ends assumed
# Residues (chain): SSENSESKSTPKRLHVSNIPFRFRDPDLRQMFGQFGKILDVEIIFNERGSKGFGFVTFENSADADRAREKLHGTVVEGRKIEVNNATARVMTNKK
Oligonucleotide,RBNS enrichment (R)
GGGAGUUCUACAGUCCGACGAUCUGCCAUGGCCUGAGCCCCCAGAUGUCACACCUGUCCGCACGCACGGCACAUGGAUGCCCACGCAUGUGCAAAAACAACUCAGGGACCAGGGACAGACCUGCUGCCAAGUGUGGAAUUCUCGGGUGCCAA,5.14
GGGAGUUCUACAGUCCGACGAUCAGGCAGGAGAAUUGCUUGAACCGGGGAGACGGAGGUUGCAGUGAGCCGAGUUUGGGCCACUGCACUCUAGCCUGGCAACAGAGCAAGACUCCGUCUCAAAAAAAGGGCAAUGGAAUUCUCGGGUGCCAA,0.248
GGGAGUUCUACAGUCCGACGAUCCUGCUCCAGCCACACUGUGAGGCUGUGGAGAACUGAAACUGUUUGACAGUGGUGCCCUAUGGAAGGGCACCUAGUUGGCUAGGGGUGUAGGCUGAGCUGAGAGGGGUGUUUGGAAUUCUCGGGUGCCAA,0.83
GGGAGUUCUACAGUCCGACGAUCUAAAAUCACUUCUCUCUUUACAUAUUUCGAACAUAUGUUUGCUUUCUACACUUUGCAGAUUUUAUUUAGGAUUUAAUUCUUUAAAGACUAUAUUCAUUUAGUCACUAUAGUGGAAUUCUCGGGUGCCAA,0.581
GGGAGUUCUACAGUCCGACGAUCACGCUGAUGGGCACUGGAGAGGCCAGAAGAGACUCAGAGGAGCGGGCUGCCUUCCGCCUGGGGCUCCCUGUGACCUCUCAGUCCCCUGGCCCGGCCAGCCACCGUCCCCAUGGAAUUCUCGGGUGCCAA,0.413
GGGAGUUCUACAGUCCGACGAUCAAGAUACUGACGUAGAACGGUAUUAGAAAAUGACACUUCAAAAAUGUUGGAUACCAAAGCACGGUAGCUGCCGGGUGAGCGGCAGUGAUUGGCAGAGAUGGGGACUUGAGUGGAAUUCUCGGGUGCCAA,2.4
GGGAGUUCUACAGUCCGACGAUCCCCAGACACACUCUCUGCCUGGUGGUCAGAUGCAGGUUGGAAGGGGCCUUGCUGAGUGGCGCAAGGCCGAGCGUUCCCAGCAGGGGGAGAAACCCUUCACACCCCAGGCCUGGAAUUCUCGGGUGCCAA,0.377
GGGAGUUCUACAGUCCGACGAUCCUAGAGGUGUGGGGGCGAUUCUGCUAGCCUCCUGAGGGGGAGGUGUGGGGAGGGGGACCCUCUGUGGUCCCCGUGGAUCUCCUGAGAAGAUAGUCACUGGCAGAGCUCUGUGGAAUUCUCGGGUGCCAA,0.592
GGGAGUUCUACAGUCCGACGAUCGUGCGCCACGUGUGGCCUCCCUGUGACCGGCCGCUGCGUGUCGGCCCUGGGUCGCCGCUUCCACCCGGACCACUUCACAUGCACCUUCUGCCUGCGCCCGCUCACCAAGGUGGAAUUCUCGGGUGCCAA,0.698
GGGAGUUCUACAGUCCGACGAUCGCUCCAACGCACAAUCCUUACUGUGCCCUUUCCACCCCCACACUCACACCAAUCUGCAGAAACCUCUUCCCUGGGGUGGAAGCCAGAGAGCUUAGAGGAAAAAGGUCAGCUGGAAUUCUCGGGUGCCAA,0.329
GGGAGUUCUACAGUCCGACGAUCAAACCUGAACUUUCAUUGGAUUUUUGUUAAUUUUCCUCAUUUUGAAUUAUGUGCACUACCAUAGCUACAUCAGUUUGAUACAGUAUUGAAAAAUUAUCAGUUAUAUUUUGUGGAAUUCUCGGGUGCCAA,0.514
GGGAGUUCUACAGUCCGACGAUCGGCUUCGCAUCAAAAGCCUGACGUUCCUGUCCCUCUUAUAGGGGGAGCUUUGGACACAGGACCAGUUUGAUAAAGGGCCAGGUAAGGGUUUCCACUCUGCACAUUGUAGAUGGAAUUCUCGGGUGCCAA,0.562

# Repeated from above (study 1):
Oligonucleotide,E-score
AACTTCGT,0.00139
ATGTCTTG,0.177
GCCGGTAC,-0.233
ACAGAGTG,0.0409
GCCGACAA,-0.149
CCAGTTAC,-0.181
ACAGCAGT,-0.0614
ACCTGACC,-0.113
CGGAAATA,0.236
GGCTTCCC,-0.212
